# Experimental data gathered from unrelated publications.
# Each line is one published result; not all experiments were run side by side.
# Organism: Acinetobacter baumannii
SMILES,assay,system,conditions,MIC
C[C@@H](O)[C@H]1C(=O)N2C(C(=O)O)=C(S[C@@H]3CN[C@H](C(=O)N(C)C)C3)[C@H](C)[C@H]12,,HR1 clinical isolate,,8 µg/mL
CN(C)c1ccc(O)c2c1C[C@H]1C[C@H]3[C@H](N(C)C)C(O)=C(C(N)=O)C(=O)[C@@]3(O)C(O)=C1C2=O,broth microdilution,NCTC 13424,"20 h, 5% CO2",4 µg/mL
CN(C)c1ccc2nc3ccc(=[N+](C)C)cc-3sc2c1,broth microdilution,"ATCC 19606, susceptible","18 h, 37 °C, LED light 10 min, 1.57 mW",> 128 µM
NC[C@H]1O[C@H](O[C@H]2[C@H](O)[C@@H](O[C@H]3O[C@H](CO)[C@@H](O)[C@H](N)[C@H]3O)[C@H](N)C[C@@H]2N)[C@H](N)C[C@@H]1O,broth microdilution,clinical isolate,,> 200 µM
C[C@@H](O)[C@H]1C(=O)N2C(C(=O)O)=C(S[C@@H]3CN[C@H](C(=O)N(C)C)C3)[C@H](C)[C@H]12,,clinical isolate 2B6,,48 µg/mL
CNC(C)C1CCC(N)C(OC2C(N)CC(N)C(OC3OCC(C)(O)C(NC)C3O)C2O)O1 (stereo not shown),broth microdilution,NCTC 13424,"20 h, ambient air",> 512 µg/mL
Cc1c(CN(C)C(=O)/C=C/c2cnc3c(c2)CCC(=O)N3)oc2ccccc12,broth microdilution,AR-0312,,> 32 µg/mL
CC(C)(O/N=C(\C(=O)N[C@@H]1C(=O)N2C(C(=O)[O-])=C(C[n+]3ccccc3)CS[C@H]12)c1csc(N)n1)C(=O)O,broth microdilution,ATCC 17978,,5 µM
CCO/N=C(\C(=O)N[C@@H]1C(=O)N2C(C(=O)[O-])=C(Sc3nc(-c4cc[n+](C)cc4)cs3)CS[C@H]12)c1nsc(NP(=O)(O)O)n1,broth microdilution,Mueller-Hinton broth,"24 h, 37 °C",12.5 µM
C[C@@H](O)[C@H]1C(=O)N2C(C(=O)O)=C(S[C@@H]3CN[C@H](C(=O)N(C)C)C3)[C@H](C)[C@H]12,broth microdilution,BNCC 194496,,0.25 µg/mL
Cc1c(CN(C)C(=O)/C=C/c2cnc3c(c2)CC(NC(=O)OC(C)(C)C)C(=O)N3)oc2ccccc12 (stereo not shown),broth microdilution,AR-0273,,> 32 µg/mL
CCc1c(Cl)c(O)c(Cl)c(O)c1C(=O)O[C@H]1[C@H](O)[C@H](OC)[C@H](OC/C2=C\C=C\C[C@H](O)/C(C)=C/[C@H](CC)[C@@H](O[C@@H]3OC(C)(C)[C@@H](OC(=O)C(C)C)[C@H](O)[C@@H]3O)/C(C)=C/C(C)=C/C[C@@H]([C@@H](C)O)OC2=O)O[C@@H]1C,broth microdilution,ATCC 17978,,320 µM
O=[N+]([O-])c1ccc(O)c2ncccc12,,19606,,1.56 µM
c1ccc2[nH]c(CNCC34CC5CC(CC(C5)C3)C4)nc2c1,,ATCC 17961,,> 128 µg/mL
CC(NCCC(c1ccccc1)c1ccccc1)c1ccccc1 (stereo not shown),broth microdilution,ATCC 17978,,8 µg/mL
NCCCC[C@H](NC(=O)[C@H](Cc1ccccc1)NC(=O)[C@H](CCC(N)=O)NC(=O)[C@H](Cc1ccccc1)NC(=O)[C@H](CCC(N)=O)NC(=O)[C@@H](N)Cc1ccccc1)C(N)=O,"broth microdilution, optical density",,,2080 µM
